Measured values of several laboratories.
Several values in a cell are separate wells, animals, samples, runs or records. Numbers after ± are the reported error. Converted amounts (≈) assume the structure as drawn.

Compound = Nc1ncnc2c1ncn2[C@@H]1O[C@@H]2COP(=O)(O)O[C@H]3[C@@H](O)[C@H](n4cnc5c(=O)[nH]cnc54)O[C@@H]3COP(=O)(O)O[C@H]2[C@H]1O; target or system = Zika virus; test = upregulated Reactome pathway, RNA sequencing, item: Adaptive Immune System (R-HSA-1280218); system = HFF-1; how to read = reference: ZIKV-infected untreated; measurement = fold enrichment; result = 2.13
Compound = O=C(O)c1nn(Cc2ccc(Cl)cc2Cl)c2ccccc12; target or system = NLRP3 inflammasome (mouse); system = mouse BMDM; setting = 10 µM; measurement = inhibition; result = 35.5%
Compound = CC(C)NCCc1c[nH]c2cccc(O)c12.O=C(O)/C=C/C(=O)O; system = C57BL/6J mice; setting = subcutaneous, 0.03 mg/kg; how to read = reference: pre-session baseline; measurement = body temperature change; result = 0.1 ± 0.2 °C
Compound = C[C@H]1O[C@@H](O[C@H]2CC[C@@]3(C)[C@@H](CC[C@]4(C)[C@@H]3C=C[C@]35OC[C@@]6(CCC(C)(C)C[C@H]63)[C@@H](O)C[C@]54C)[C@]2(C)CO)[C@H](O)[C@@H](O[C@@H]2O[C@H](CO)[C@@H](O)[C@H](O)[C@H]2O)[C@H]1O; system = mouse, chronic-plus-binge ethanol, AAV8-TBG-Null, liver; setting = dose not given, high dose; measurement = NAD+/NADH ratio; result = 3.65 and 4.82 and 2.99 and 3.68
Compound = Cc1ccc(Cl)cc1N1CCN(CCCNc2ncnc3onc(-c4ccc(F)cc4)c23)CC1; target or system = Vero-E6; test = CellTiter-Glo ATP; setting = concentration not given, 72 h, first round 5-point; how to read = reference: DMSO 0%, hyamine -100%, more negative, more toxic; measurement = cytotoxicity efficacy; result = 0%
Compound = O=C(N[C@H](CO)[C@H](O)c1ccc([N+](=O)[O-])cc1)C(Cl)Cl; target or system = Salmonella enterica; setting = 20 h, pH 7; measurement = MIC; result = 2 µg/mL (≈ 6.19 µM)
Compound = C#CCN(C)[C@H](C)Cc1ccccc1; test = HPLC-ECD; system = MPTP mouse model, striatum; setting = 10 mg/kg; measurement = striatal dopamine content; result = 5.86 ng/mg tissue and 4.96 ng/mg tissue and 7.19 ng/mg tissue and 6.51 ng/mg tissue and 6.33 ng/mg tissue and 5.93 ng/mg tissue and 5.68 ng/mg tissue
Compound = C/C=C(/C)C(=O)O[C@H]1C(C)=C2[C@H]([C@@H]1OC(=O)CCCCCCC)[C@@](C)(OC(C)=O)C[C@H](OC(=O)CCC)[C@@]1(O)[C@H]2OC(=O)[C@@]1(C)O; target or system = HEK-293T; test = RNA-seq GSEA, item: Hallmark hedgehog signaling; setting = 500 nM, 6 h; how to read = direction not given; measurement = normalized enrichment score; result = 1.35
Compound = Cn1cnc2c(F)c(Nc3ccc(Br)cc3Cl)c(C(=O)NOCCO)cc21; target or system = human coronavirus OC43; test = virus-induced cell killing; system = MRC-5; setting = maximum over 10 doses; measurement = maximum inhibition; result = 0%
Compound = CC(C)(C)NCCc1c[nH]c2cccc(O)c12.CC(C)(C)NCCc1c[nH]c2cccc(O)c12.O=C(O)/C=C/C(=O)O; system = C57BL/6J mice; setting = subcutaneous, 0.1 mg/kg; how to read = reference: pre-session baseline; measurement = body temperature change; result = 0 ± 0.2 °C
Compound = CO[C@H]1C[C@@H]2CC[C@@H](C)[C@@](O)(O2)C(=O)C(=O)N2CCCC[C@H]2C(=O)O[C@H]([C@H](C)C[C@@H]2CC[C@@H](OC(=O)C(C)(CO)CO)[C@H](OC)C2)CC(=O)[C@H](C)/C=C(\C)[C@@H](O)[C@@H](OC)C(=O)[C@H](C)C[C@H](C)/C=C/C=C/C=C/1C; target or system = human coronavirus OC43; test = virus-induced cell killing; system = MRC-5; setting = maximum over 10 doses; measurement = maximum inhibition; result = 0%
Compound = c1ccc(C(NCCNC(c2ccccc2)c2ccccc2)c2ccccc2)cc1; target or system = 5-HT1 receptor, rat; test = binding; setting = 10 µM, Eurofins selectivity panel; measurement = inhibition; result = 4%
Compound = Cc1cn([C@H]2O[C@@H](CO[P@@](=O)(N[C@@H](C)C(=O)OC(C)C)Oc3ccccc3)[C@H](O)[C@H]2F)c(=O)[nH]c1=O; system = adults with chronic hepatitis B; setting = 25 mg, day 28; how to read = reference: baseline; measurement = change in HBV DNA; result = 2.72 log10 IU/mL
Compound = CCCCNCCc1c[nH]c2cccc(O)c12.O=C(O)/C=C/C(=O)O; system = C57BL/6J mice; setting = subcutaneous, 30 mg/kg; how to read = reference: pre-session baseline; measurement = body temperature change; result = -2.7 ± 0.2 °C
Compound = COc1cc(CCNC(C)c2ccccc2O)c(OC)cc1C#N.Cl (centres unmarked); target or system = 5-HT2A L123V mutant, human; test = Gq dissociation, BRET; how to read = reference: wild-type 5-HT2A; measurement = fold loss in potency; result = 121 fold
Compound = CCCc1cc(-c2nc(-c3ccc(C)cc3)cs2)ccn1; target or system = human coronavirus OC43; test = virus-induced cell killing; system = MRC-5; setting = screen; measurement = maximum inhibition; result = 4.31%
Compound = CCCCC1(CCCC)CN(c2ccccc2)c2cc(SC)c(OCC(=O)N[C@@H](C(=O)NCC(=O)O)c3ccccc3)cc2S(=O)(=O)C1; test = item: LDL cholesterol; system = human, serum; setting = 20 mg once daily, day 8; measurement = serum LDL-C; result = 72.5 mg/dL
Compound = CN1CCN(S(=O)(=O)c2cc([N+](=O)[O-])ccc2N(CCOS(C)(=O)=O)CCOS(C)(=O)=O)CC1; system = NSG mice, sample BG PDX; setting = intraperitoneal, 25 mg/kg weekly x3; how to read = reference: treated over vehicle; measurement = EFS ratio (T/C); result = 19.2
Compound = COC1=C2C[C@@H](C)C[C@H](OC)[C@H](O)[C@@H](C)/C=C(\C)[C@H](OC(N)=O)[C@@H](OC)/C=C\C=C(/C)C(=O)NC(=CC1=O)C2=O; target or system = human coronavirus OC43; test = virus-induced cell killing; system = MRC-5; setting = screen; measurement = maximum inhibition; result = 11.7%
Compound = COc1ccc2c(c1)[nH]c1c(C)nccc12; target or system = DU-145; test = bisulfite pyrosequencing, item: RASSF1A promoter CpG site 11; setting = 10 µM, 16 h; measurement = DNA methylation; result = 80.6%
Compound = COc1c(CCC[P+](c2ccccc2)(c2ccccc2)c2ccccc2)cc2c(c1OC)OCO2.[I-]; target or system = NCI/ADR-RES; test = SRB; measurement = Log10LC50; result = > -4 log M
Compound = CC(=O)NC[C@H]1CN(c2ccc(N3CCOCC3)c(F)c2)C(=O)O1; target or system = human coronavirus OC43; test = virus-induced cell killing; system = MRC-5; setting = screen; measurement = maximum inhibition; result = 12.1%
Compound = O=C(O)/C=C/C(=O)O.Oc1cccc2[nH]cc(CCNC3CCCCC3)c12; system = C57BL/6J mice; setting = subcutaneous, 0.1 mg/kg; how to read = reference: pre-session baseline; measurement = body temperature change; result = 0.2 ± 0.2 °C
Compound = C[C@]12CC[C@H]3[C@@H](CC=C4CC(O)CC[C@@]43CO)[C@@H]1CCC2O (some centres unmarked); system = GAN diet MASH rats; setting = ip, 20 mg/kg, two weeks; how to read = reference: GAN vehicle; measurement = plasma TAG level; result = decreased
Compound = O=C(Cc1ccccc1)Nc1nnc(CCSCCc2nnc(NC(=O)Cc3ccccc3)s2)s1; target or system = human coronavirus OC43; test = virus-induced cell killing; system = MRC-5; setting = screen; measurement = maximum inhibition; result = 8.15%
Compound = CC(C)N(CCC(C(N)=O)(c1ccccc1)c1ccccn1)C(C)C (centres unmarked); target or system = Nedd8-cullin1 interaction; test = neddylation, AlphaScreen; setting = 100 µM; measurement = inhibition; result = 22.4%
Compound = CC(/C=C/C(=O)NO)=C\[C@@H](C)C(=O)c1ccc(N(C)C)cc1; target or system = human coronavirus OC43; test = virus-induced cell killing; system = MRC-5; setting = maximum over 10 doses; measurement = maximum inhibition; result = 0%
Compound = COc1ccc(Nc2cc(C(=O)NCCCN3CCN(c4ccc(OC)cc4)CC3)c3ccccc3n2)cc1; target or system = Vero-E6; test = CellTiter-Glo ATP; setting = 72 h, second round 5-point; how to read = reference: DMSO 0%, hyamine -100%, more negative, more toxic; measurement = maximum response; result = -21.2%
Compound = O=C(Nc1c[nH]nc1-c1nc2ccc(CN3CCOCC3)cc2[nH]1)NC1CC1; target or system = human coronavirus OC43; test = virus-induced cell killing; system = MRC-5; setting = maximum over 10 doses; measurement = maximum inhibition; result = 0%
Compound = CCCNCCc1c[nH]c2cccc(O)c12.CCCNCCc1c[nH]c2cccc(O)c12.O=C(O)/C=C/C(=O)O; system = C57BL/6J mice; setting = subcutaneous, 30 mg/kg; how to read = reference: pre-session baseline; measurement = body temperature change; result = -4.9 ± 0.4 °C
Compound = COc1cc(CCC[P+](c2ccccc2)(c2ccccc2)c2ccccc2)c(OC)c2c1OCO2.[I-]; target or system = ACHN; test = SRB; measurement = LC50; result = > -4 log M
Compound = C=CCNCCc1c[nH]c2cccc(O)c12.C=CCNCCc1c[nH]c2cccc(O)c12.O=C(O)/C=C/C(=O)O; system = C57BL/6J mice; setting = subcutaneous, 30 mg/kg; how to read = reference: pre-session baseline; measurement = body temperature change; result = -6.5 ± 0.7 °C
Compound = C[C@]1(O)CC[C@H]2[C@@H]3CCC4=CC(=O)CC[C@]4(C)[C@@]3(F)[C@@H](O)C[C@@]21C; target or system = THP-1; test = pyroptotic LDH release; setting = 2 µM, 40 min, added: LPS then nigericin; measurement = inhibition; result = -1.28%
Compound = CCNCCc1c[nH]c2cccc(O)c12.CCNCCc1c[nH]c2cccc(O)c12.O=C(O)CCC(=O)O; system = C57BL/6J mice; setting = subcutaneous, 3 mg/kg; how to read = reference: pre-session; measurement = body temperature change; result = -0.2 ± 0.1 °C
Compound = CC[C@H](C)[C@@H]1NC(=O)[C@@H]2CCCN2C(=O)[C@H](CC(C)C)NC(=O)[C@H](CC(C)C)NC(=O)CNC(=O)[C@@H](NC(=O)[C@@H](NC(=O)[C@H](CC(=O)O)NC(=O)CNC(=O)[C@@H](NC(=O)[C@H](C)NC(=O)CNC(=O)[C@H](CCCCN)NC(=O)[C@H](CC(C)C)NC(=O)[C@H](CC(C)C)NC(=O)[C@H](CCCCN)NC(=O)CNC(=O)[C@@H](NC(=O)[C@@H](N)CC(C)C)C(C)C)C(C)C)C(C)C)CSSC[C@@H](C(=O)O)NC1=O; test = RNA-seq, item: Notch2; system = mouse, traumatic brain injury model, frontal cortex and hippocampus; setting = dose not given; how to read = reference: TBI alone; measurement = log2 fold change; result = -1
